Published values collected from several papers.
Every numbered part comes from another study and shows a few of its results, in no order.

Sample 1
Target: Cyclic AMP-dependent transcription factor ATF-1, full length (ATF1, Homo sapiens, UniProt P18846, residues 1-271)
Technique: protein-binding microarray
Molecule type: hairpin DNA
Matrix: in vitro
Tested at: not given
Setting: whole hairpin DNA, median over replicate spots
Baseline: not given
Direction: higher = stronger binding
Target sequence (chain): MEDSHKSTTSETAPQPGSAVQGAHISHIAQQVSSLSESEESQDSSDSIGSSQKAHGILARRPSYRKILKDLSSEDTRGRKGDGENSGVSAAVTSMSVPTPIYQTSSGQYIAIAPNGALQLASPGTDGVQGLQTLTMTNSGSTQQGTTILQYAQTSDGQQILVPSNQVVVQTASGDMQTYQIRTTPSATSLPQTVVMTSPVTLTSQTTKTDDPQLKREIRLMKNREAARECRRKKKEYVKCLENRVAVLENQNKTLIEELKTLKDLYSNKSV
Sequence	median fluorescence [a.u.]
GAGGCCGACGACGTCGAGCCTCCTGGCTCGACGTCGTCGGCCTCACACTC (5mC at 9 15 29 35)	3860
GAGGCCGGTTGACGTCAGCCTCCTGGCTGACGTCAACCGGCCTCACACTC	8330
GAGGCCGGATGACGTCTGCCTCCTGGCAGACGTCATCCGGCCTCACACTC	7770
GAGGCCGGATGCGGTCAGCCTCCTGGCTGACCGCATCCGGCCTCACACTC (5mC at 32)	3320
GAGGCCGGCTGACGTCGGCCTCCTGGCCGACGTCAGCCGGCCTCACACTC	5840
GAGGCCGACGACGCGGTGCCTCCTGGCACCGCGTCGTCGGCCTCACACTC (5mC at 9 29 30 35)	4150
GAGGCCGACGGCGTCGTGCCTCCTGGCACGACGCCGTCGGCCTCACACTC (5mC at 9 15 29 35)	3520
GAGGCCGACGACGTCGCGCCTCCTGGCGCGACGTCGTCGGCCTCACACTC (5mC at 9 15 17 29 35)	4600
GAGGCCGGATGACGTCAGCCTCCTGGCTGACGTCATCCGGCCTCACACTC (5mC at 13 31)	3540
GAGGCCGGCTGACGTCAGCCTCCTGGCTGACGTCAGCCGGCCTCACACTC (5mC at 16)	6750
GAGGCCGGATGACGTCAGCCTCCTGGCTGACGTCATCCGGCCTCACACTC (5mC at 37)	15900
GAGGCCGACGACGTCCGGCCTCCTGGCCGGACGTCGTCGGCCTCACACTC (5mC at 9 15 35)	3400
GAGGCCGACGCGGTCGTGCCTCCTGGCACGACCGCGTCGGCCTCACACTC (5mC at 9 15 29 35)	3610
GAGGCCGGCTGCGGTCAGCCTCCTGGCTGACCGCAGCCGGCCTCACACTC (5mC at 12 32)	3330
GAGGCCGGATGACTTCAGCCTCCTGGCTGAAGTCATCCGGCCTCACACTC	3200
GAGGCCTGCTGACGTCAGCCTCCTGGCTGACGTCAGCAGGCCTCACACTC	11400
GAGGCCGCGGACGTCGTGCCTCCTGGCACGACGTCCGCGGCCTCACACTC (5mC at 8 15 29 35)	3990

Sample 2
Target: RNA binding protein fox-1 homolog 2, RRM domain, GST-SBP tag (RBFOX2, Homo sapiens, UniProt O43251-10, residues 100-194)
Technique: RNA Bind-n-Seq
Molecule type: RNA
Matrix: in vitro
Tested at: 365 nM
Setting: natural RNA segment, single round, ends assumed
Baseline: no-protein control
Direction: higher = stronger binding
Residues (chain): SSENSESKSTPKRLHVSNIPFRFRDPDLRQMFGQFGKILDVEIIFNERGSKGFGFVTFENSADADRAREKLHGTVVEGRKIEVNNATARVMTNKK
Sequence	RBNS enrichment (R)
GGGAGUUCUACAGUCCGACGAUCCAGAGAACAAUCACUAUUCUUAAGCACUUUGAAGAUAUUUCUAUGUAAAUUAUUGUAAACUUUUUCAAUGGUUGGGACAAUGGCAAUAGGAUAAAACGGGUUACUAAGAUUGGAAUUCUCGGGUGCCAA	0.375
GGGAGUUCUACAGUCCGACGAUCCCUCCUGAAAACUUGGACUCUGCAUGGUGCCACCACCAACCAUUGAGUAGUCUGAGGUGCUAACAUCAGGCCCUCCUGCUCACUCCUUGGCUGACCUGCCCCCCUACUUGUGGAAUUCUCGGGUGCCAA	0.65
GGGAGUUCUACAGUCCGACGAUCUGUCACAUCUAAAUGCUGCUGGUCGAUACUUUAUCAUUCCACAAACAUUUAUUCACUUCCAAAUAUGUUUUAUGUAUACCCACAUACAGUGUGUGGGAUUACAGCCAAAGUGGAAUUCUCGGGUGCCAA	0.301
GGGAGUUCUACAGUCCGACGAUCCCUGCCCAGGGUAGGCCUGGCAUGAGGGGUUAGGUCAGCCAAUGUCAGCUGCUUCUCUUGGGGCCCUCUCAGAGUCUAUCUCCCCAAGACAGGAAGGGAAAAGCAAAUUUUGGAAUUCUCGGGUGCCAA	0.355
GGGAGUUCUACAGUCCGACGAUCAACAGAAGGUCCUGUUGGGUUUGUUGUUUUUGAGGCUGCCGAAUGGUUUUGGAAUGCAGGGUCAGCCUUGGAGUAUCUCUGAGCAUUGUGGCCUCAGCCAGGAGCGCACUUGGAAUUCUCGGGUGCCAA	3.73
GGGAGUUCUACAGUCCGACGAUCAUGUCCAAAGUGGAACUCUCCAUCUACCUCCCUCACAUGAACCUGUUCCUCUCUCAGGAUCUGUAUGUAAGUGAAAAGCAUCACCAUCUACCCAUUGGCUCAAGCAGAAAUGGAAUUCUCGGGUGCCAA	0.556
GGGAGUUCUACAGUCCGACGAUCCCAUGUCUGGCAGAUGAGGGCUGUUUGCCCUUUUCUGUGCCAAUGAGUGCCCUUUUCUGGCACUCUCAGACCAAAAGUGUUUAUUGUGUCAUUUGUCCUUUGUCUAGGAGUGGAAUUCUCGGGUGCCAA	0.339
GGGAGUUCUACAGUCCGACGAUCUGCUCUGACUGGCUCCCCUUCCAGACUGCCUUUUCUGGCCUUUCUGGGGUUCCCUGUUGGUGCCACAGGGCACUUCCUUAAAACCAGUACUGUACCAGAAAACUGAGGGUUGGAAUUCUCGGGUGCCAA	0.312
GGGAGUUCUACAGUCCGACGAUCUUUGAGAUCACUUUUAUUUUUGAAAUGGCCUUUGUUCAUUGUAUUGUGAUCCAAUAACACUUUGUAUUAAAUUGUUUAGCAGCCAUUUGUGUUGUGAAGGGGUAGAAGAUUGGAAUUCUCGGGUGCCAA	0.48
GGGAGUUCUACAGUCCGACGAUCAAGACUGGAGGAAGUGAACACUGGAGUGAAGAAGCGGUCUGUGCGUUGGUGAAGAACACACAUCGAUUCUGCACCUGGGGACCCAGAGCGAGAUGGGUUUGUUCGGUGCCUGGAAUUCUCGGGUGCCAA	1.18
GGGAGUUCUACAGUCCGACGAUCCGCAUUUAAAAUGUAUUCUUAAUGUGCUGUAGUGUGUGUGAGCCGGUGUCCAGAGGUGUGAAAUAUACCAUGUAAUCUCACACAGGUGGACUGUGGAACCGUUUUUAUGGUGGAAUUCUCGGGUGCCAA	0.832
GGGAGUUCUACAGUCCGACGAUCAUUCCAGCAGCACCUUUAAAGCAAUCUUUACCUUAGUUUUUUGAGUUGUUUUACCUUUCAUCCCAAUCUGAAAAGUUUUAAUAAAUGCUGAGCUUAUUCUUAGGGUAUGAUGGAAUUCUCGGGUGCCAA	0.432

Sample 3
Target: Interferon regulatory factor 5, full length, phosphomimetic (IRF5, Homo sapiens, UniProt Q13568-2, residues 1-514, K96S/S451D/S453D/S456D/S462D)
Technique: protein-binding microarray
Molecule type: double-stranded DNA, one strand shown
Matrix: in vitro
Tested at: 250 nM
Setting: 60-bp whole probe
With: salmon DNA 0.4 mg/ml
Baseline: random background probes
Direction: higher = stronger binding
Shared flanks, not repeated: GCCTAGCAC … GTCTTGATTCGCTTGACGCTGCTG
Sequence	log fluorescence [z-score]
TTTTTTCTACTTCTCTTTTGGTGCTAG	3.11
AACGATATCGGGTTTCGAGACGTGCTA	4.03
TCACTAATCTCACTCTGACTGTGCTAG	0.44
GTGAAATAAGGGAGGCCTAGGTGCTAG	-0.117
GACGGTTTCGACTATAGGGACGTGCTA	5.86
GACGGTCTCAGTTTCGGGACGTGCTAG	5.64
AACGGTATCCTTATCCTGACGTGCTAG	0.289
TGGACTGTGTGTTTGAGTCTGTGCTAG	-0.509
TCATGTATATACTATATGACTGTGCTA	0.705
TACGGACTGGGTTTCGGGACGTGCTAG	2.1
GACGGTCTCCGACTGGGGACGTGCTAG	-0.444
GACGATTTCGGGACTGAAGACGTGCTA	2.15
TGTGTTATTAAATTTTCACGGGTGCTA	0.32
TTAGGACTGGGGTTTCGGTTGGTGCTA	5.68
GGTCCTCTCTCTATTCAGAGGTGCTAG	-0.235
CTAGGTATCGGGTATCGGTTAGTGCTA	6.48
TTGGGACTGGACACTGGGTTAGTGCTA	-0.504
TTAGAACTGCGGTTTCGATTAGTGCTA	6.87
TTCATTTTGTGTCTGGGCATGTGCTAG	0.405
CCACTTTCACTTCTCCCTTTGTGCTAG	8.63
GACCGTATCGGACTGGGGACGTGCTAG	0.663

Sample 4
Target: Prothrombin, mature alpha-thrombin (F2, Homo sapiens, UniProt P00734)
Technique: aptamer microarray, sandwich
Molecule type: DNA with 2'F-ANA
Matrix: in vitro
Tested at: 200 nM
Setting: whole 15-mer aptamer, many near background
With: Cy3 exosite-II aptamer, 400 nM
Direction: higher = stronger binding
Sequence: GGTTGGTGTGGTTGG
Modification	mean fluorescence intensity [a.u.]
2'F-ANA at 1 4 5 6 8 9 12 14 15	47.8
2'F-ANA at 2 3 4 5 6 7 8 10 14	100
2'F-ANA at 1 2 3 4 5 7 8 10 11 12 14 15	50.1
2'F-ANA at 1 5 6 8 9 10 15	47.4
2'F-ANA at 2 3 4 5 9 10	51.2
2'F-ANA at 1 2 5 6 7 8 9	66.5
2'F-ANA at 4 5 6 7 10 11 13	56.4
2'F-ANA at 5 6 7 9 10 14 15	109
2'F-ANA at 1 2 3 4 5 6 10 13 15	95.8
2'F-ANA at 4 6 8 9 10 11 12 14	63.6
2'F-ANA at 1 2 3 4 6 7 8 9 11 15	139
2'F-ANA at 1 4 5 6 9 11 14 15	50.7
2'F-ANA at 2 5 6 8 9 10 12 14	62.7
2'F-ANA at 2 3 4 5 6 9 11 15	71.1
2'F-ANA at 1 7 9 10 11 12 13 15	65.2
2'F-ANA at 2 3 4 12 14	413
2'F-ANA at 1 6 8 10 11 13 14 15	51
2'F-ANA at 1 3 5 8 10 14 15	46.1
2'F-ANA at 1 2 3 5 7 8 10 11 15	58.2
2'F-ANA at 4 8 10 11 12 13 14	55.9
2'F-ANA at 1 4 9 13 15	77
2'F-ANA at 1 2 4 7 9 11 12 13 14 15	51.5
2'F-ANA at 1 6 7 9 10 11 12 13	59.4
2'F-ANA at 1 2 3 5 7 10 11 15	74.8
2'F-ANA at 1 3 6 8 9 11 12 13 15	367
